# Published values collected from several papers.
# Every numbered part comes from another study and shows a few of its results, in no order. Several values in a cell are separate wells, animals, samples, runs or records.
# Sequence of UniProt Q15831 (whole entry, looked up): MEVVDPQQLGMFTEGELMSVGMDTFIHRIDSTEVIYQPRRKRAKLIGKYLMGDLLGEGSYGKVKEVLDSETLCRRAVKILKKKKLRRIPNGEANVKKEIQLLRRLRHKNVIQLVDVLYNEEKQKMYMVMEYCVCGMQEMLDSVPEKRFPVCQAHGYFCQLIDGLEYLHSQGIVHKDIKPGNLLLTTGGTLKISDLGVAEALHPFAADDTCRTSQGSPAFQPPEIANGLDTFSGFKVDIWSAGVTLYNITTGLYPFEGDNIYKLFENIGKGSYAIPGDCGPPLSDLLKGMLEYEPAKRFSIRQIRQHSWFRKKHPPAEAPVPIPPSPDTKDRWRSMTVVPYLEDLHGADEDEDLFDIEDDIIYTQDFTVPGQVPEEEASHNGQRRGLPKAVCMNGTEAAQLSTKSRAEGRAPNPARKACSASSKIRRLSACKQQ
# Sequence of UniProt P06241 (whole entry, looked up): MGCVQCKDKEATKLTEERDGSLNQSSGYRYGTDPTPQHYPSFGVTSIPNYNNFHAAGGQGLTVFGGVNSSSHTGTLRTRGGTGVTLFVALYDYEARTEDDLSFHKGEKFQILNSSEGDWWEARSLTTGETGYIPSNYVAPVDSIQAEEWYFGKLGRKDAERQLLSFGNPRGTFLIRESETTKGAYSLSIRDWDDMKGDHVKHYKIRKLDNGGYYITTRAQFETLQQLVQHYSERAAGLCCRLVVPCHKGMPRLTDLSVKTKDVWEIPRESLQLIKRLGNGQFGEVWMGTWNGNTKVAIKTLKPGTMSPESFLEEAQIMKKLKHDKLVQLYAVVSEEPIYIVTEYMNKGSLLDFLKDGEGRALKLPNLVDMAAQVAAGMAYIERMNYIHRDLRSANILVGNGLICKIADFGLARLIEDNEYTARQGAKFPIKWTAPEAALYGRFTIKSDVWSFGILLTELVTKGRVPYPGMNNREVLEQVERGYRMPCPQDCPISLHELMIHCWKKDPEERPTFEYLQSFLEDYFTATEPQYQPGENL
# Sequence of UniProt P45983 (whole entry, looked up): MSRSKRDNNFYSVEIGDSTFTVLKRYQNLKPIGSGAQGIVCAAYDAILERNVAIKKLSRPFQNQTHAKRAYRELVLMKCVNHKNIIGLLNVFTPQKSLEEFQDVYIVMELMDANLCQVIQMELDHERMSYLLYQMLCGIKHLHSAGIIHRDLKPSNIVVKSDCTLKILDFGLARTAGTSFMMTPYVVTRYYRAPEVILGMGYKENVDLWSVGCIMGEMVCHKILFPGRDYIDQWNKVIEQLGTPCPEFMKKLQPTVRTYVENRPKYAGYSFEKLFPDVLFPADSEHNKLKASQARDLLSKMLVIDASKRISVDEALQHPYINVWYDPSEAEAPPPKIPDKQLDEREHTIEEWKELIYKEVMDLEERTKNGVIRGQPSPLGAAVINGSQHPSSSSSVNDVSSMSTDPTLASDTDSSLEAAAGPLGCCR
# Sequence of UniProt Q9HC98 (whole entry, looked up): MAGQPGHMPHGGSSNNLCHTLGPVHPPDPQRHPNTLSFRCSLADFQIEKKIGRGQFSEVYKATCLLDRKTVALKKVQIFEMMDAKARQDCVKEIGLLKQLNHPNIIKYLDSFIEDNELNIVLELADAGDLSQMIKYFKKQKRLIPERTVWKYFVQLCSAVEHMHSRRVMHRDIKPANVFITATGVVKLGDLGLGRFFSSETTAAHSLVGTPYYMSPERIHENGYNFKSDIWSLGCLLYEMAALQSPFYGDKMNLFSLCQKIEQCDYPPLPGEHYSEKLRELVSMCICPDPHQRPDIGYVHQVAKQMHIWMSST
# Sequence of UniProt P16591 (whole entry, looked up): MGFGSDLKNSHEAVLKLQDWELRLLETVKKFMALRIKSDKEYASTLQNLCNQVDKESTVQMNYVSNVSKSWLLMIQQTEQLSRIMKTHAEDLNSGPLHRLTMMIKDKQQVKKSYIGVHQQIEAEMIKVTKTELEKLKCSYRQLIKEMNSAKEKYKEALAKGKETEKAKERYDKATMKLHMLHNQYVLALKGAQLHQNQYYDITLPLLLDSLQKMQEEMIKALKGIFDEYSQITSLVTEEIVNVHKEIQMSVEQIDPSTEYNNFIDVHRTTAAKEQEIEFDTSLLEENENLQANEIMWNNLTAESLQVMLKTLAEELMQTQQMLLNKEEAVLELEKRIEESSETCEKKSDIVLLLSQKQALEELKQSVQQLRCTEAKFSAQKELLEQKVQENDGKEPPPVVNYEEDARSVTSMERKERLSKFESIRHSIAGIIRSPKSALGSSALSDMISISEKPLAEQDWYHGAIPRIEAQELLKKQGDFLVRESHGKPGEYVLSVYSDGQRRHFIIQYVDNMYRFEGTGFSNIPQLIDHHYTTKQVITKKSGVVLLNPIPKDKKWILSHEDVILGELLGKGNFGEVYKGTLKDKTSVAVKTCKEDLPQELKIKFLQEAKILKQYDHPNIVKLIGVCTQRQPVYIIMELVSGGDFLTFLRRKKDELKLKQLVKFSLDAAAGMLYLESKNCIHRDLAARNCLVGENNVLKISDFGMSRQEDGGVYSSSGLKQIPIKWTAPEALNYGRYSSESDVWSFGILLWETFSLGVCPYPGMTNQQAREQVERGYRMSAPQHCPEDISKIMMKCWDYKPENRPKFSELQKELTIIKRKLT
# Sequence of UniProt Q9BX84 (whole entry, looked up): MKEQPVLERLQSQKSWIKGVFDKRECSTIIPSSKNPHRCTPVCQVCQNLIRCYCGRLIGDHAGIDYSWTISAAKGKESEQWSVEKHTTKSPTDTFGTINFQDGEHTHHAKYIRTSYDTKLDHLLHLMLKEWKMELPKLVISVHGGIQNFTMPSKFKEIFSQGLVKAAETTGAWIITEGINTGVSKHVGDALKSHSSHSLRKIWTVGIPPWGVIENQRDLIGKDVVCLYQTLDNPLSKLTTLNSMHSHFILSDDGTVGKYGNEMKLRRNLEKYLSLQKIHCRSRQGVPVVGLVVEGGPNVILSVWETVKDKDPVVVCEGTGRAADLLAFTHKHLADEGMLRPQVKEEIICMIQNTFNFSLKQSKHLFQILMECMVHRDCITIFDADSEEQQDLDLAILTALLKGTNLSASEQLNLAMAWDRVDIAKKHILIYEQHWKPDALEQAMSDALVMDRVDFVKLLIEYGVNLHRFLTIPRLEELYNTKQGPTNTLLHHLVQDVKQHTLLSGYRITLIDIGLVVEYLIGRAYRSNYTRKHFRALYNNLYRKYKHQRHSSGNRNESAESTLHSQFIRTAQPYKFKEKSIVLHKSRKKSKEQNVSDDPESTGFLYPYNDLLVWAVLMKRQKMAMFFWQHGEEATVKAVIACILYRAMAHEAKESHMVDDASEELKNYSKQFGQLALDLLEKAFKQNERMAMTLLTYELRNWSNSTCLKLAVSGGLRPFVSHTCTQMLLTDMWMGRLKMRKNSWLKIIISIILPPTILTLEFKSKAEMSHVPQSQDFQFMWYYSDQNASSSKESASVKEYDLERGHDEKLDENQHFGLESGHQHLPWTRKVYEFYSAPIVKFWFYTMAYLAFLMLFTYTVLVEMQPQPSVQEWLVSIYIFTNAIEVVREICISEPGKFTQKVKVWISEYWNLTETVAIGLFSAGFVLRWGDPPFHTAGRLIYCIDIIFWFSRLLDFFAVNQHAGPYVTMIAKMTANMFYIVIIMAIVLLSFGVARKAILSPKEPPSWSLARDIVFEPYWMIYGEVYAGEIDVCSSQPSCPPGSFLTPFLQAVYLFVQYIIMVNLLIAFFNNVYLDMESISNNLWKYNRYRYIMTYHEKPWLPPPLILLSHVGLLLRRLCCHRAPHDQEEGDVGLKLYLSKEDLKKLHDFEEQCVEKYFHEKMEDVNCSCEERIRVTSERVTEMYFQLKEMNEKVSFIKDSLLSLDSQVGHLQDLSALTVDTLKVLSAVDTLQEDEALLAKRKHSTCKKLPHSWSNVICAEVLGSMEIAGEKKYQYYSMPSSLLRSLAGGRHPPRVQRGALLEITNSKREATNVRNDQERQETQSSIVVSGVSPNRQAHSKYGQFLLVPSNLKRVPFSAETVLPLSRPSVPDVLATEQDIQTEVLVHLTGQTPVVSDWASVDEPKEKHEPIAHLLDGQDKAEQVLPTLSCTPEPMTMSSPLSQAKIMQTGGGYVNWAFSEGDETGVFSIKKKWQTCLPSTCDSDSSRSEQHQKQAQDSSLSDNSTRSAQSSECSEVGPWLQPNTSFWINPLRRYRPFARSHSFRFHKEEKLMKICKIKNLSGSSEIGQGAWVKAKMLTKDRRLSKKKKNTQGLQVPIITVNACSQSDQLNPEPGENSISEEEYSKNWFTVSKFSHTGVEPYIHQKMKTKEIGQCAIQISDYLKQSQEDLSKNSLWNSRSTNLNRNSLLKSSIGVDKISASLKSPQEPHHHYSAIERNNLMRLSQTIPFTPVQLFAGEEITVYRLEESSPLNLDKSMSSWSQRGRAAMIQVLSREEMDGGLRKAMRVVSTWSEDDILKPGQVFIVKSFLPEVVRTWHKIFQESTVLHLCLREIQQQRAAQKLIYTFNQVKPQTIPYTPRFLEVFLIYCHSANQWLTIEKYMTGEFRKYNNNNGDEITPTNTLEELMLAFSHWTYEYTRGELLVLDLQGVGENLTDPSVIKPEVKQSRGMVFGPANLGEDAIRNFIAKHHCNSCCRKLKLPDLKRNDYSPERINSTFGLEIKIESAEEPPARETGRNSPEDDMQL
# Sequence of UniProt Q8TDX7 (whole entry, looked up): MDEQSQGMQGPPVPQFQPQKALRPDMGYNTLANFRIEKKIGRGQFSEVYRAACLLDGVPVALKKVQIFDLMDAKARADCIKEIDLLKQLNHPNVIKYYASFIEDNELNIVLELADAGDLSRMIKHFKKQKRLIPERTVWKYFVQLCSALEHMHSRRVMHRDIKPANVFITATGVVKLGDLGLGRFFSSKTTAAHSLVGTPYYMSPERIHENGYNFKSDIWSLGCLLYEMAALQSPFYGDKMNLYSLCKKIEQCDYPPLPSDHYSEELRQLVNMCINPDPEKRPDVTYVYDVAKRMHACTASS

# Series 1 — concentration: 1 µM
# Compound: CC[C@@]1(c2cccc(-c3c(F)cncc3OC)c2)C2=C(Nc3n[nH]cc31)[C@H](F)C(C)(C)CC2=O (single isomer, unassigned)
target,test,scale,remaining binding [%]
"Ribosomal protein S6 kinase alpha-2, N-terminal kinase domain (RPS6KA2, Homo sapiens, UniProt Q15349)","binding, competition with immobilised ligand",,100
"FYN (Homo sapiens, UniProt P06241)","binding, competition with immobilised ligand",,100
"TRPM6 (Homo sapiens, UniProt Q9BX84)","binding, competition with immobilised ligand",,77
"TESK1 (Homo sapiens, UniProt Q15569)","kinase binding, KINOMEscan",baseline: DMSO control,100
"CILK1 (Homo sapiens, UniProt Q9UPZ9)","binding, competition with immobilised ligand",,15
"STK11 (Homo sapiens, UniProt Q15831)","binding, competition with immobilised ligand",,100
"NEK6 (Homo sapiens, UniProt Q9HC98)","kinase binding, KINOMEscan",baseline: DMSO control,89
"Ribosomal protein S6 kinase alpha-5, C-terminal kinase domain (RPS6KA5, Homo sapiens, UniProt O75582)","kinase binding, KINOMEscan",baseline: DMSO control,98
"MAPK8 (Homo sapiens, UniProt P45983)","binding, competition with immobilised ligand",,56
"Tyrosine-protein kinase ABL1, phosphorylated (ABL1, Homo sapiens, UniProt P00519, M351T)","binding, competition with immobilised ligand",,73
"FER (Homo sapiens, UniProt P16591)","kinase binding, KINOMEscan",baseline: DMSO control,100
"NEK7 (Homo sapiens, UniProt Q8TDX7)","binding, competition with immobilised ligand",,100

# Series 2 — cell line: U-87 MG; concentration: concentration not given; baseline: DMSO
# SMILES: CCN1/C(=C/C=C2\CCCC(/C=C/C3=[N+](CC)c4ccccc4C3(C)C)=C2NCCCCCCCCN2CCC(Nc3nc4ccccc4n3Cc3ccc(F)cc3)CC2)C(C)(C)c2ccccc21
test,log2 fold change
item: KCNE4 mRNA,-1.49
item: NPIPA2 mRNA,0.947
item: IFRD1 mRNA,1.41
item: PRRT3 mRNA,-1.06
item: ATOH8 mRNA,-3.61
item: FIGN mRNA,-1.97
item: SKA2 mRNA,-1.82
item: GOT1 mRNA,1.42
item: GCNT1 mRNA,-1.75
item: NPR3 mRNA,-1.55
item: TMPO mRNA,-1.79

# Mixed results
# KRAS G12D: GTPase KRas (KRAS, Homo sapiens, UniProt P01116, G12D)
SMILES,tested on,test,test system,setting,endpoint,result
Cc1ncsc1-c1ccc(C(CO)NC(=O)C2CC(O)CN2C(=O)C(C(C)C)n2cc(-c3ccc(COc4c(-c5c(C)c(F)cc6[nH]ncc56)c(C5CC5)cc5c(N6CC7CC6CN7)nc(OC6CCOCC6)nc45)cc3)nn2)cc1 (stereo not shown),KRAS G12D,"degrader, In-Cell ELISA","PK-59, control siRNA",1440 min,DC50,11.8 nM
"Cc1ccc(O)c(C)c1-c1cnc2[nH]c(-c3cnc(N4CCC5(CC4)CC(N4CCN(c6ccc(N[C@H]7CCC(=O)NC7=O)cc6F)CC4)CO5)nc3)cc2c1C#N (single isomer, unassigned)",,,"male Sprague-Dawley rat, plasma","oral, 20 mg/kg",AUC(0-t),29900 ng·h/mL
Cc1ncsc1-c1ccc(C(CO)NC(=O)C2CC(O)CN2C(=O)C(NC(=O)c2ccc(COc3c(-c4c(C)c(F)cc5[nH]ncc45)c(C4CC4)cc4c(N5CC6CC5CN6)nc(OC5CCOCC5)nc34)cc2)C(C)C)cc1 (stereo not shown),AsPC-1,in-cell ELISA,,"300 nM, individual replicates",phospho-ERK1/2 level,9.99% and 22.2% and 14.3% and 17.4% and 18% and 23.9%
Cc1ccc(O)c(C)c1-c1cnc2[nH]c(-c3cnc(N4CCC(CCN5CCN(c6ccc(NC7CCC(=O)NC7=O)cc6F)CC5)CC4)nc3)cc2c1C#N (stereo not shown),,,"female CD-1 mouse, plasma","oral, 60 mg/kg",bioavailability,31.6%
Cc1ncsc1-c1ccc(C2(NC(=O)C3CC(O)CN3C(=O)C(NC(=O)c3ccc(COc4c(-c5c(C)c(F)cc6[nH]ncc56)c(C5CC5)cc5c(N6CC7CC6CN7)nc(OC6CCOCC6)nc45)cc3)C(C)C)CC2)cc1 (stereo not shown),KRAS G12D,"degrader, In-Cell ELISA",AsPC-1 (KRAS G12D),24 h,DC50,236 nM and 111 nM and 224 nM
Cc1ccc(O)c(C)c1-c1cnc2[nH]c(-c3cnc(N4CCC5(CC4)CC(CN4CCN(c6ccc(NC7CCC(=O)NC7=O)cc6F)CC4)C5)nc3)cc2c1C#N (stereo not shown),,,"female CD-1 mouse, plasma","oral, 20 mg/kg",AUC(0-t),4000 ng·h/mL
Cc1ncsc1-c1ccc(C2(NC(=O)C3CC(O)CN3C(=O)C(NC(=O)c3ccc(COc4c(-c5c(C)c(F)cc6[nH]ncc56)c(C5CC5)cc5c(N6CC7CC6CN7)nc(OC6CCOCC6)nc45)cc3)C(C)(C)C)CC2)cc1 (stereo not shown),AsPC-1,in-cell ELISA,,"30 nM, individual replicates",phospho-ERK1/2 level,99% and 105% and 93.2% and 94.1% and 104% and 93.4%
Cc1ccc(O)c(C)c1-c1cnc2[nH]c(-c3cnc(N4CCC(CN5CCN(c6ccc(NC7CCC(=O)NC7=O)cc6F)CC5)CC4)nc3)cc2c1C#N (stereo not shown),,,"male Sprague-Dawley rat, plasma","oral, 10 mg/kg",bioavailability,32.3%
